Measurements from different studies.
Lines come from different studies, so protocols differ.
Technique: steady-state kinetics
B1: ycjS (Escherichia coli, UniProt P77503); chain MKSAMTSSPLRVAIIGAGQVADKVHASYYCTRNDLELVAVCDSRLSQAQALAEKYGNASVWDDPQAMLLAVKPDVVSVCSPNRFHYEHTLMALEAGCHVMCEKPPAMTPEQAREMCDTARKLGKVLAYDFHHRFALDTQQLREQVTNGVLGEIYVTTARALRRCGVPGWGVFTNKELQGGGPLIDIGIHMLDAAMYVLGFPAVKSVNAHSFQKIGTQKSCGQFGEWDPATYSVEDSLFGTIEFHNGGILWLETSFALNIREQSIMNVSFCGDKAGATLFPAHIYTDNNGELMTLMQREIADDNRHLRSMEAFINHVQGKPVMIADAEQGYIIQQLVAALYQSAETGTRVEL
B2: enzyme (Acinetobacter baumannii, UniProt D0CBC8); chain MALVLDGRALAKQIEENLLVRVEALKAKTGRTPILATILVGDDGASATYVRMKGNACRRVGMDSLKIELPQETTTEQLLAEIEKLNANPDVHGILLQHPVPAQIDERACFDAISLAKDVDGVTCLGFGRMAMGEAAYGSATPAGIMTILKENNIEIAGKHAVVVGRSAILGKPMAMMLLQANATVTICHSRTQNLPELVKQADIIVGAVGKAELIQKDWIKQGAVVVDAGFHPRDGGGVGDIQLQGIEEIASAYTPVPGGVGPMTITTLIRQTVEAAEKALG
B3: speck Y220F (Drosophila melanogaster, UniProt Q94521); chain MEDALTVSGKPAACPVDQDCPYTIELIQPEDGEAVIAMLKTFFFKDEPLNTFLDLGECKELEKYSLKPLPDNCSYKAVNKKGEIIGVFLNGLMRRPSPDDVPEKAADSCEHPKFKKILSLMDHVEEQFNIFDVYPDEELILDGKILSVDTNYRGLGIAGRLTERAYEYMRENGINVYHVLCSSHFSARVMEKLGFHEVFRMQFADYKPQGEVVFKPAAPHVGIQVMAKEVGPAKAAQTKL
B4: UGT1A9 (Homo sapiens, UniProt O60656); chain GKLLVVPMDGSHWFTMRSVVEKLILRGHEVVVVMPEVSWQLGRSLNCTVKTYSTSYTLEDLDREFKAFAHAQWKAQVRSIYSLLMGSYNDIFDLFFSNCRSLFKDKKLVEYLKESSFDAVFLDPFDNCGLIVAKYFSLPSVVFARGILCHYLEEGAQCPAPLSYVPRILLGFSDAMTFKERVRNHIMHLEEHLLCHRFFKNALEIASEILQTPVTEYDLYSHTSIWLLRTDFVLDYPKPVMPNMIFIGGINCHQGKPLPMEFEAYINASGEHGIVVFSLGSMVSEIPEKKAMAIADALGKIPQTVLWRYTGTRPSNLANNTILVKWLPQNDLLGHPMTRAFITHAGSHGVYESICNGVPMVMMPLFGDQMDNAKRMETKGAGVTLNVLEMTSEDLENALKAVINDKSYKENIMRLSSLHKDRPVEPLDLAVFWVEFVMRHKGAPHLRPAAHDLTWYQYHSLDVIGFLLAVVLTVAFITFKCCAYGYRKCLGKKGRVKKAHKSKTH
B5: GSH1 E201K (Arabidopsis thaliana, UniProt P46309); chain AASPPTEEAVVATEPLTREDLIAYLASGCKTKDKYRIGTEHEKFGFEVNTLRPMKYDQIAELLNGIAERFEWEKVMEGDKIIGLKQGKQSISLEPGGQFELSGAPLETLHQTCAEVNSHLYQVKAVAKEMGIGFLGIGFQPKWRREDIPIMPKGRYDIMRNYMPKVGTLGLDMMLRTCTVQVNLDFSSEADMIRKFRAGLALQPIATALFANSPFTEGKPNGFLSMRSHIWTDTDKDRTGMLPFVFDDSFGFEQYVDYALDVPMYFAYRKNKYIDCTGMTFRQFLAGKLPCLPGELPSYNDWENHLTTIFPEVRLKRYLEMRGADGGPWRRLCALPAFWVGLLYDDDSLQAILDLTADWTPAEREMLRNKVPVTGLKTPFRDGLLKHVAEDVLKLAKDGLERRGYKEAGFLNAVDEVVRTGVTPAEKLLEMYNGEWGQSVDPVFEELLY
B6: vioC (Streptomyces vinaceus, UniProt Q6WZB0); chain MTESPTTHHGAAPPDSVATPVRPWSEFRLTPAEAAAAAALAARCAQRYDETDGPEFLLDAPVIAHELPRRLRTFMARARLDAWPHALVVRGNPVDDAALGSTPVHWRTARTPGSRPLSFLLMLYAGLLGDVFGWATQQDGRVVTDVLPIKGGEHTLVSSSSRQELGWHTEDAFSPYRADYVGLLSLRNPDGVATTLAGVPLDDLDERTLDVLFQERFLIRPDDSHLQVNNSTAQQGRVEFEGIAQAADRPEPVAILTGHRAAPHLRVDGDFSAPAEGDEEAAAALGTLRKLIDASLYELVLDQGDVAFIDNRRAVHGRRAFQPRYDGRDRWLKRINITRDLHRSRKAWAGDSRVLGQR
B7: enzyme (Schizosaccharomyces pombe, UniProt Q9Y7P0); chain MFTGLVEAIGVVKDVQGTIDNGFAMKIEAPQILDDCHTGDSIAVNGTCLTVTDFDRYHFTVGIAPESLRLTNLGQCKAGDPVNLERAVLSSTRMGGHFVQGHVDTVAEIVEKKQDGEAIDFTFRPRDPFVLKYIVYKGYIALDGTSLTITHVDDSTFSIMMISYTQSKVIMAKKNVGDLVNVEVDQIGKYTEKLVEAHIADWIKKTQA
B8: Mj-MAT W387F/Y72W (Methanocaldococcus jannaschii, UniProt Q58605); chain MRNIIVKKLDVEPIEERPTEIVERKGLGHPDSICDGIAESVSRALCKMYMEKFGTILHHNTDQVELVGGHAWPKFGGGVMVSPIYILLSGRATMEILDKEKNEVIKLPVGTTAVKAAKEYLKKVLRNVDVDKDVIIDCRIGQGSMDLVDVFERQKNEVPLANDTSFGVGYAPLSTTERLVLETERFLNSDELKNEIPAVGEDIKVMGLREGKKITLTIAMAVVDRYVKNIEEYKEVIEKVRKKVEDLAKKIADGYEVEIHINTADDYERESVYLTVTGTSAEMGDDGSVGRGNRVNGLITPFRPMSMEAASGKNPVNHVGKIYNILANLIANDIAKLEGVKECYVRILSQIGKPINEPKALDIEIITEDSYDIKDIEPKAKEIANKFLDNIMEVQKMIVEGKVTTF
B9: protein (Trypanosoma brucei, UniProt Q382C3); chain MKRSVSKVWLNEDTPNDPYPLYAPSPLPPKRPGTIRVWVDGCFDMLHFGHANALRQARSMGDELFVGCHTDEEIIRHKGPPSMRQEERYEALRACKWVDAVIEGYPYVTRVEDMKRFEVDFVVHGDDISVDLNGRNSYQAIIDAGMFKAVRRTECISTTDLVGRMLLCVPSELLSDADKKLLDSEVARKRGPHYLTTSRKIAQFSNKLAPPVGATVVYVDGAFDLFHAGHIRFLQKARALGDYLIVGIHDDQLVRESKGEHFPIMSLNERALGVLSCRYVDDVVFGAPRGVTQEMIKILDIKIVACGTSSETRNCKGAFDVYEVPKSLNLFKVVESGSDLSTDMIVERVVKNHVVLLERQFLKHMKDSEAELRKPDVYRNVREV
B10: putA D779W (Bradyrhizobium diazoefficiens, UniProt Q89E26); chain MPNIPPPFTAPYAPDDAEIAARLLPASHLSPPQEARIHRTATRLIEAIRKRDDRLGGVEDMLREFALSTKEGLALMVLAEALLRVPDARTADQFIEDKLGEGDFIHHETKSTAFLVNASAWALGLSARVIQPGETPDGTIGRLVKRLGAPAVRTATRQAMRLMGNHFVLGETIEQALERGKPRSGQKTRYSFDMLGEGARTAADARRYFDAYASAIETIGKAAGNHALPDRPGISVKLSALHPRFEAISRARVMVELVPQLLDLAQRAKAHDLNFTVDAEEADRLELSLDVIAATLADPSLKGWDGFGLAIQAYQKRASAVIDYVDALARAHDRKLMVRLVKGAYWDTEIKRAQERGLDGYPVFTRKAMTDLNYVACASKLLALRPRIFPQFATHNALTVATVLEMAEGSSGFEFQRLHGMGEALYEQLAKDHADIAYRTYAPVGSHRDLLAYLVRRLLENGANSSFVAQAADYRVPVPALLQRPADAIVRPQAAAHPRIPLPCDLFAPERRNSRGVEFGARTALDQLLTDVKAETGDLKPIADATPDQAHAAVAAARAGFAGWSRTPAGIRAAALEQAAHLLESRSAHFIALLQREGGKTLDDALSELREAADFCRYYAAQGRKLFGSETAMPGPTGESNALTMRGRGVFVAISPWNFPLAIFLGQVTAALMAGNSVVAKPAEQTPRIAREAVALLHEAGIPKSALYLVTGDGRIGAALTAHPDIAGVVFTGSTEVARSINRALAAKDGPIVPLIAETGGINAMIADATALPEQVADWVVTSAFRSAGQRCSALRLLFVQEDVADRMIEMVAGAARELKIGDPSDVATHVGPVIDVEAKQRLDAHIARMKTEARLHFAGPAPEGCFVAPHIFELTEAGQLTEEVFGPILHVVRYRPENLERVLRAIERTGYGLTLGVHSRIDDSIEAIIDRVQVGNIYVNRNMIGAVVGVQPFGGNGLSGTGPKAGGPHYLARFATEQTVTINTAAAGGNAALLAGEE
Sequence of UniProt Q8KHZ8 (whole entry, looked up): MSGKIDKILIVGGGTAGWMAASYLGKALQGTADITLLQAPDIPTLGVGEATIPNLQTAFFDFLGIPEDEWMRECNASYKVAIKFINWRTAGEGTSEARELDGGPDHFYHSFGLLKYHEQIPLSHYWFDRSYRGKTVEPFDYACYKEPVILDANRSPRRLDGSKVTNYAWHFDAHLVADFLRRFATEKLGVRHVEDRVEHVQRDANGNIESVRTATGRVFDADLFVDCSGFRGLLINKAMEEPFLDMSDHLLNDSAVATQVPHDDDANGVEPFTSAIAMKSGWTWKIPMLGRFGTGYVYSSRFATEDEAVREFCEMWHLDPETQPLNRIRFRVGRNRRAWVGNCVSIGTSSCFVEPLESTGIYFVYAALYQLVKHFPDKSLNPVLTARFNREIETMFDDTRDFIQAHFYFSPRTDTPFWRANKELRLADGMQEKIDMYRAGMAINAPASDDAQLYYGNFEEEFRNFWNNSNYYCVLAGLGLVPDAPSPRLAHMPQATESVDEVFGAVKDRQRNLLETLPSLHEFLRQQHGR

Substance	substrate	conditions	Km [µM]
B1 (ycjS)	OC[C@H]1OC[C@H](O)[C@@H](O)[C@@H]1O	pH 8, 30 °C, together with: NAD+ 2.0 mM	2100
rebH (Lentzea aerocolonigenes, UniProt Q8KHZ8)	c1ccc2c3c([nH]c2c1)CNCC3	together with: glucose dehydrogenase regeneration	144
B2 (enzyme)	Nc1nc2c(c(=O)[nH]1)N1CN(c3ccc(C(=O)N[C@@H](CCC(=O)O)C(=O)O)cc3)C[C@H]1CN2	pH 7.3, 27 °C	26.8
B3 (speck Y220F)	CC(=O)SCCNC(=O)CCNC(=O)[C@H](O)C(C)(C)COP(=O)(O)OP(=O)(O)OC[C@H]1O[C@@H](n2cnc3c(N)ncnc32)[C@H](O)[C@@H]1OP(=O)(O)O	pH 7.2, 30 °C	430
B4 (UGT1A9)	O=C(/C=C/c1ccccc1O)c1ccccc1	pH 7.4, 37 °C	0.23
B5 (GSH1 E201K)	Nc1ncnc2c1ncn2[C@@H]1O[C@H](COP(=O)(O)OP(=O)(O)OP(=O)(O)O)[C@@H](O)[C@H]1O	pH 7	1450
B6 (vioC)	N=C(N)NCCCC[C@H](N)C(=O)O	pH 8, 30 °C, together with: alpha-ketoglutarate 1.0 mM	7050
B7 (enzyme)	Cc1nc2c(=O)[nH]c(=O)nc-2n(C[C@H](O)[C@H](O)[C@H](O)CO)c1C	pH 7.2, 37 °C, apparent	5.7
B8 (Mj-MAT W387F/Y72W)	CSCC[C@H](N)C(=O)O	55 °C, together with: ATP 2.5 mM, methionine 0.05-1 mM	130
B9 (protein)	NCCOP(=O)(O)O	pH 7.5, together with: CTP 0.1 mM	12.1
B10 (putA D779W)	O=C(O)[C@@H]1CCC=N1	pH 7.5, 23 °C	350

Excerpt of the above:
Substance	substrate	conditions	Km [µM]
B7 (enzyme)	Cc1nc2c(=O)[nH]c(=O)nc-2n(C[C@H](O)[C@H](O)[C@H](O)CO)c1C	pH 7.2, 37 °C, apparent	5.7
